# Measured values of several laboratories.
# Protocols differ between the studies behind these lines. “And” joins repeats or separate records; there may be more than shown.
# Target: Tyrosine-protein kinase Fgr (FGR, Homo sapiens, UniProt P09769)
SMILES,assay,conditions,how to read,endpoint,value
C=CC(=O)N1CCc2ccc(-n3c(=O)ccc4cnc5ccc(-c6cnn(C)c6)cc5c43)cc21,KINOMEscan,1 µM,relative to: DMSO control,remaining binding,100%
Cc1cnc2nc1Nc1cccc(c1)COC/C=C/COCc1cc(ccc1OCCN1CCOCC1)N2,cell-free assay,0.1 µM,,remaining signal,81%
CNC(=O)C1CCN(c2cc(C)c(F)cc2NC(=O)c2ccc(-c3cc(O)ccc3C)c(C)c2)CC1,"binding, competition with immobilised ligand",1 µM,,remaining binding,1.5%
CNC(=O)C[C@H](Cc1ccc(C#N)cc1)NC(=O)c1cc(-c2ccc(CN[C@H](C)c3ccc(C)cc3)o2)ccc1Cl,"enzyme activity, inhibitor",1 µM,,activity vs control,94%
C=CC(=O)N1Cc2nc(-c3cc(-c4cc(Cl)cnc4Cl)c(F)cc3F)n(-c3ccncn3)c2C1,"cell-free assay, inhibitor",1 µM,,inhibition,6.8%
CNC1C[S+]2CC[S+]3CC[S+](C1)[Ru-4]321([N]=C=S)[n]2c3ccc(OC)cc3c3c4c(c5cc(F)c[n+]1c5c32)C(=O)NC4=O (centres unmarked),KinomeScan,0.1 µM,relative to: untreated,remaining binding,90%
C[C@H]1CN(C(=O)c2cn(-c3ccnc(N)n3)c3cc(C#CC4(O)CCCCC4)ccc23)CCN1,"enzyme activity, inhibitor, FRET",1 µM,,inhibition,1%
CCn1cc(C(=O)O)c(=O)c2c(N)c(F)c(NC3CCCCC3)cc21,kinase activity,"0.1 µM, together with: ATP at Km",,inhibition,-10.7%
NC(=O)C[C@H]1CCc2sc3ncnc(O[C@H]4CC[C@H](N5CCOCC5)CC4)c3c21,"enzyme activity, inhibitor, radiometric",10 µM,,inhibition,18%
CC(C)=CC1OC(C)(C)C2C=C3C(=O)C(Cl)=CC(O)C3C3C(O)C4OC4C(=O)C132 (centres unmarked),"cell-free assay, competition with immobilised ligand",10 µM,,remaining binding,88%
COc1c(Cl)cccc1Nc1c(-c2ccncc2C#C[C@@]2(C)CCCN2C(=O)/C=C/CN(C)C)[nH]c2c1C(=O)NCC2,"cell-free assay, competition with immobilised ligand",3 µM,,remaining binding,55%
Cc1cccc(O[C@H]2CCC[C@@H](C(C)CNCc3ccncc3)C2)c1 (relative stereo),"cell-free assay, inhibitor",10 µM,,inhibition,-10%
C=CC(=O)Nc1cccc(-c2cnc3[nH]cc(C(=O)NC(C)(C)C)c3n2)c1,kinase activity,0.1 µM,,inhibition,5% and 3%
Nc1ncc(-c2cc(-c3cnn(CC(F)(F)F)c3)ncc2F)nc1C(=O)NC1CNCC(F)C1 (centres unmarked),enzyme activity,1 µM,relative to: DMSO control,remaining activity,83.3%

# A few entries again:
SMILES,assay,conditions,how to read,endpoint,value
Nc1ncc(-c2cc(-c3cnn(CC(F)(F)F)c3)ncc2F)nc1C(=O)NC1CNCC(F)C1 (centres unmarked),enzyme activity,1 µM,relative to: DMSO control,remaining activity,83.3%
NC(=O)C[C@H]1CCc2sc3ncnc(O[C@H]4CC[C@H](N5CCOCC5)CC4)c3c21,"enzyme activity, inhibitor, radiometric",10 µM,,inhibition,18%
